Experimental data pooled from the literature.
Every numbered part comes from another study and shows a few of its results, in no order. Changes are numbered by the printed parent chain.

Series 1 — method: protein binding microarray; molecule type: double-stranded DNA, one strand shown; sample: in vitro; concentration: not given; relative to: not given; reading: higher = stronger binding; measurement: E-score
Target: Histone acetyltransferase KAT6A, both winged helices, GST fusion (KAT6A, Homo sapiens, UniProt Q92794, residues 1-181)
Notes: 8-mer, flanks averaged, mean of 2 arrays, mostly near background
Construct (chain): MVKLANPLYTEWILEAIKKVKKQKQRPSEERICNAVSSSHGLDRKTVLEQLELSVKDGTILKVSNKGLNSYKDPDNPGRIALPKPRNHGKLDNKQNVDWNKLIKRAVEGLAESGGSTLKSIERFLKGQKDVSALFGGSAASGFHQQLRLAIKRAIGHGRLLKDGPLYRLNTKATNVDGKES
Strand = ATTGTCGA; result = -0.177
Strand = CTACGGAG; result = 0.146
Strand = ACAATCAT; result = -0.189
Strand = AGGGTGAC; result = -0.0735
Strand = AAAGTCGG; result = 0.00292
Strand = GATGTAAA; result = 0.0174
Strand = GACCGAAC; result = 0.0183
Strand = TGGAGAAA; result = -0.0652
Strand = GAATATAC; result = 0.0425
Strand = CAGTGGCC; result = -0.0383
Strand = GAGGATGA; result = -0.0802
Strand = ACCTGTTC; result = -0.174
Strand = CAGCCGGC; result = 0.312
Strand = CGGAGATA; result = 0.169
Strand = CACTTGGG; result = -0.16
Strand = GGCCGGAA; result = 0.204

Series 2 — target: CEBPE, bZIP domain (human); method: DHFR protein complementation; sample: yeast; relative to: wild-type JUN-FOS pair; reading: higher = stronger binding; measurement: binding fitness
Notes: single substitutions, most at no-binding floor
Parent: JUN, bZIP domain (human); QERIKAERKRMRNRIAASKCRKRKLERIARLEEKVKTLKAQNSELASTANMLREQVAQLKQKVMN; partner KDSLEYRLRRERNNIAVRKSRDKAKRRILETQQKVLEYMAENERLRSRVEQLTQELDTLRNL
Change = M51L; result = -1.02 natural log
Change = E32D; result = -1.2 natural log
Change = V35T; result = -1.42 natural log
Change = L45G; result = -1.48 natural log
Change = Q58T; result = -0.969 natural log
Change = L31V; result = -1.41 natural log
Change = N42F; result = -1.53 natural log
Change = L31W; result = -1.33 natural log
Change = A29N; result = -1.25 natural log
Change = R30E; result = -0.742 natural log
Change = E54L; result = -1.31 natural log
Change = S43V; result = -1.17 natural log
Change = A40C; result = -1.31 natural log
Change = R30A; result = -0.805 natural log
Change = Q55Y; result = -1.4 natural log

Series 3 — target: CCNA2, cyclin fold, Cln2 fusion (human); method: yeast growth competition, sequencing; sample: yeast; notes: strong parent motif; relative to: not given; reading: higher = stronger binding; measurement: normalised enrichment score
Parent: GMNC docking peptide (human); KNAKRNLSSEFAN; partner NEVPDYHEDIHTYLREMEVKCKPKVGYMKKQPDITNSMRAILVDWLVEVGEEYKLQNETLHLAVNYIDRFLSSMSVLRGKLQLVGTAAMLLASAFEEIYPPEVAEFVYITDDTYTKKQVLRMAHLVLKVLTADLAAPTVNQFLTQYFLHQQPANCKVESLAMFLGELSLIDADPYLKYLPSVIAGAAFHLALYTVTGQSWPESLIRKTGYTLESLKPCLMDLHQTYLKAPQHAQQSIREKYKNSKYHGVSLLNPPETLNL
Change = KNATRNLSSEFAN [K4T]; result = 1.42
Change = KNAKRNLSSHFAN [E10H]; result = 1.65
Change = KNAKRNLSVEFAN [S9V]; result = 5.33
Change = KNAKINLSSEFAN [R5I]; result = 0.344
Change = KNAQRNLSSEFAN [K4Q]; result = 2.94
Change = KNAIRNLSSEFAN [K4I]; result = 3.72
Change = KNAKRNLSNEFAN [S9N]; result = 4.84
Change = KNAKRNLSLEFAN [S9L]; result = 5.79
Change = KNAKRNLSSEKAN [F11K]; result = 0.193
Change = KNAKRNLSSEFFN [A12F]; result = 4.65
Change = KNAKRNESSEFAN [L7E]; result = 0.156
Change = KNAKRNLSPEFAN [S9P]; result = 4.76
Change = KNAKRNLSCEFAN [S9C]; result = 4.85
Change = KNAKRNLSSEDAN [F11D]; result = 0.819
Change = KNAKRNLSSEFGN [A12G]; result = 4.76
Change = KNAKRNLQSEFAN [S8Q]; result = 5.08
Change = KNACRNLSSEFAN [K4C]; result = 4.85
Change = KNAKKNLSSEFAN [R5K]; result = 1.98

Series 4 — method: RNA Bind-n-Seq; molecule type: RNA; sample: in vitro; concentration: not given; relative to: input RNA pool; reading: higher = stronger binding; measurement: bound/input enrichment
Target: RING finger protein unkempt homolog, zinc fingers 1-6, GST-SBP tag (UNK, Homo sapiens, UniProt Q9C0B0, residues 30-357)
Notes: RNA with constant flanks, human and mouse sites, ends assumed
Constant ends, left off below: GGGAGUUCUACAGUCCGACGAUC … CAACAGAGGAUUGAGCAUCA
Target sequence (chain): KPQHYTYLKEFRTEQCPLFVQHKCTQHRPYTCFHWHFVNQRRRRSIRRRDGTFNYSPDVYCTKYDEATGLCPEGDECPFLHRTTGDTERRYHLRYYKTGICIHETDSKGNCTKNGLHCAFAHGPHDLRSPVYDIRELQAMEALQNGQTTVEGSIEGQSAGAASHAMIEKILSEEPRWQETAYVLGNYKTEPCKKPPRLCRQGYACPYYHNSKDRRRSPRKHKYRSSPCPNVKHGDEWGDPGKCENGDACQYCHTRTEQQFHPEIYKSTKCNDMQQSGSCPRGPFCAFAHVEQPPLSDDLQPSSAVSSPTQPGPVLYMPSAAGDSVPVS
Strand = GCAAAGAUGGUAUGUUCAGAUUCUCCAUUUGCUGGGGCGCUAAGAAAACGACUGCUUGUACUCCAACGUGUCUUUUAUGCACUUUCUAAUAAGUACCAUGACAAAGGCAAAGUGAAACAG; result = 0.197 ratio
Strand = CCCAGGAAGAAAGUGAAUCCUGAAACCCGGCAGAAAGGCCAGAUUGAGGGAGAAGUGGACCUCAUUGGGAUGGUGAGGCUGACAGAAACCAGGCAGCCUUUUGUCCCUGAGAACAAUCCA; result = 0.0865 ratio
Strand = UCCUCAACUAGAGAACAUGUUCAAAAGAAAGCUGCAGAAUGGAAAAUCAAGAUAGAUAUUAUAGCAGAACUUCGAUAUGACCUGCCAGCAUCAUACAAGUUUCACAAAAAGAAAUCAGUG; result = 16.1 ratio
Strand = ACCCAAGUUGGAGUCAUUCGUUGCCCAGUUUGCAGCCAAGAAUGUGCAGAGAGACACAUCAUAGAUAACUUUUUUGUGAAGGACACUACUGAGGUUCCCAGCAGUACAGUAGAAAAGUCA; result = 1.36 ratio
Strand = GUUGGUACCUCUGUAAAAACUUUAGUGUUAGCGUACAGCUCUGCAGUCUCCAGCAAAAUGGUUAGGCAGAUUUUAGAGCUUUGUCCUAACCUGGAACAUCUGGAUCUUACCCAGACCGAC; result = 0.768 ratio
Strand = CCGCUGCCUUCCCCAGCCGCCGCCAUGAAGCUGACCGACAGCGUGUUGCGGAGCUUCCGCGUCGCUAAGGUGUUCCGCGAAAACUCGGACAAGAUUAACUGCUUCGAUUUCAGCCCCAAC; result = 0.0763 ratio
Strand = GUUUUAAUAAAGGCUCUUGAAAUUACAAAAGCAAGUCACGUGAGCCCCCACCCAGGAGAUAGCUGGAUUCCUUUACUCAUUAAUGCCGUUGACCAUUGCAUGAACAGAAUUAAGGCGCUC; result = 0.784 ratio
Strand = AAAAGGAAACCAACCACCUGCAUGCUGCAGAAGGUUCUUCUCAAUGAAUAUAAUGGCAUCGAUUUACCUGUAGAAAACCCUGCAGAUGGGACCAGGAGCCCAAGUCCUUGUAAAUCCCUA; result = 0.152 ratio

Series 5 — method: RNA Bind-n-Seq; molecule type: RNA; sample: in vitro; concentration: 365 nM; relative to: no-protein control; reading: higher = stronger binding; measurement: RBNS enrichment (R)
Target: RNA binding protein fox-1 homolog 2, RRM domain, GST-SBP tag (RBFOX2, Homo sapiens, UniProt O43251-10, residues 100-194)
Notes: natural RNA segment, single round, ends assumed
Constant ends, left off below: GGGAGUUCUACAGUCCGACGAUC … UGGAAUUCUCGGGUGCCAA
Construct (chain): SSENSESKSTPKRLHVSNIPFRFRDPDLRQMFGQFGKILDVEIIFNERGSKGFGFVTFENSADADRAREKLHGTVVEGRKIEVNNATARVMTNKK
Strand = AUUUUUUAAAGAAUAAAUCCCGCAUGUGAAAGUUUAUGAAGGUUACUAGCAGGUUCUUUUUAAAAGAACAUUUGGUUUUUUUUAAACAUGUGAUUUUUAACACAUAUAUU; result = 5.7
Strand = CUGGCUCUCCAUUUCUGGCCUCAGUUGUCUACAGGACAGUGGUCAGGGAUGCCUGGAGGCAUAUAUCCAGCUGCCACCAAGGGGCACUGUUUGUUCCCACUUAUGUGAGU; result = 0.258
Strand = ACACGAGAUAUUCUGCUUUCAGACUUAUUUUAUUGCAACCAGAGAAUAUGAGAAUUUGAUAUGUAAUUAUUUCACAAAUAUGAUCUUUUCAAUAACAAAAUAUCGUAAGU; result = 0.532
Strand = ACAGCCCUGCGCAGUGGGGCAGGGAGGGAGGGAGAAGCAAUGGUGCCCUUCCUGCUGGAGAGACAAGCAGCAGUAGCGCAGCGCCCGCCCGCCAUGUGCAGGAGCUGGCG; result = 1.44
Strand = UUUAAAAAGGAGAUUAUUCUAAAACAUAAACUUAUUUGCAUAUAUUGGAGGAGCAUCCACUAUCAGUAUUUCUGUGCUUUAUAAACUAUAUUAGAGGGACUGGGUUUAAA; result = 0.456
Strand = AAAUGGGACCAAACAUAUGGAAGGGGCUGCUGUCCUGCCUCAAUUUAGCCAAGACUUGUCUUGUCUCAAAGCCAAGACUCAGCAGUACAUGGAUUCUGAGAAGUCCAGGG; result = 0.353
Strand = CACACACAGCAGGGCACUUGUUCUGCCUCAGGCUGCAUCUACUCAGUGCCGUUAAUAAACUUUAGAUACAAACCAACAACCACCAUUCUCCAGUAUACUACAGUGGGAAU; result = 0.531
Strand = GCUUUACCACAGAGCUGCCAACGUCCUUUCACUGUCUCCACACGAUGGCCCAGUAUCCUUGGUUGUGGAUAGGGUCAUCCCUGGCUCCUCACCCAGCACCCAGCUUAACC; result = 0.518

Single results of other studies
Substance = PhoQ, residues 284 288 289 292 302 303 AQGLTV; target = PhoP, residues 12 14 15 18 19 SEGLL (Escherichia coli, UniProt P23836); test = Sort-seq, refers to: YFP reporter; test system = E. coli; setting = PhoQ-PhoP variant library, added: 10 µM Mg2+; scale = relative to: high Mg2+ state, higher = stronger signaling; measurement = fold induction; result = 10.6

Excerpt of the above (series 3):
Change = KNAKRNLSLEFAN [S9L]; result = 5.79
Change = KNAIRNLSSEFAN [K4I]; result = 3.72
Change = KNAKRNESSEFAN [L7E]; result = 0.156
Change = KNAKRNLSSHFAN [E10H]; result = 1.65
Change = KNAKRNLSSEFGN [A12G]; result = 4.76
Change = KNAKKNLSSEFAN [R5K]; result = 1.98
Change = KNAKRNLSCEFAN [S9C]; result = 4.85
Change = KNAKINLSSEFAN [R5I]; result = 0.344
Change = KNAKRNLSPEFAN [S9P]; result = 4.76
